Results gathered from unrelated publications.
Parts stem from different laboratories: compare values within a part only. “And” joins repeats or separate records; there may be more than shown.
Chain of UniProt P51817 (whole entry, looked up): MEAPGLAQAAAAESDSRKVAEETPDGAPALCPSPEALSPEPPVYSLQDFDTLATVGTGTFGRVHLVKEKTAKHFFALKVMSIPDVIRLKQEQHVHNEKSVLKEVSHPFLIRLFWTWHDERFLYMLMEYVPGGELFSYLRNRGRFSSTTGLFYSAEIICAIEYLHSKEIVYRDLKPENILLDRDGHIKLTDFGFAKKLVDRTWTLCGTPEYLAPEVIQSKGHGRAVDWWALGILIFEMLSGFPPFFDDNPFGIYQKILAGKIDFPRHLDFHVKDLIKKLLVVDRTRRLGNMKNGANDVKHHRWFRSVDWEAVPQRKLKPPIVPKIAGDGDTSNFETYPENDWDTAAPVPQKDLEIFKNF
Chain of UniProt P25098 (whole entry, looked up): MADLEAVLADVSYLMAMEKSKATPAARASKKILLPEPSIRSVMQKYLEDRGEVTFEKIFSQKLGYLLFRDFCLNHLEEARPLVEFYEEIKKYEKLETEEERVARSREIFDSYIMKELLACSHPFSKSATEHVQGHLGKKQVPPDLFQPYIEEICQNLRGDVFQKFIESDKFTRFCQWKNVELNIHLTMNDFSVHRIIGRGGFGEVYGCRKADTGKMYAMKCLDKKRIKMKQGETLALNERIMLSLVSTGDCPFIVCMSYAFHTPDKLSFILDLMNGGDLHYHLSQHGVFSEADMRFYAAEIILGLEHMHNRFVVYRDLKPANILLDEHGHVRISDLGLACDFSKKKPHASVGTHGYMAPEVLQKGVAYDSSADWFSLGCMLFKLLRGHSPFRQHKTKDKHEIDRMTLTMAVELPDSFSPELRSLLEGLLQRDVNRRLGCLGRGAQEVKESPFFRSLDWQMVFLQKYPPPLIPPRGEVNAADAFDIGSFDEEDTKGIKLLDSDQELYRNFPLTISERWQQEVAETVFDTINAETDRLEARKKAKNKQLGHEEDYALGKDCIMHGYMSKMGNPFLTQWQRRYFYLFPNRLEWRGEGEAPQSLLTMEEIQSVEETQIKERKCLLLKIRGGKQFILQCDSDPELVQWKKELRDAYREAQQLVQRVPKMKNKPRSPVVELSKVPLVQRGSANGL
Chain of UniProt Q14004 (whole entry, looked up): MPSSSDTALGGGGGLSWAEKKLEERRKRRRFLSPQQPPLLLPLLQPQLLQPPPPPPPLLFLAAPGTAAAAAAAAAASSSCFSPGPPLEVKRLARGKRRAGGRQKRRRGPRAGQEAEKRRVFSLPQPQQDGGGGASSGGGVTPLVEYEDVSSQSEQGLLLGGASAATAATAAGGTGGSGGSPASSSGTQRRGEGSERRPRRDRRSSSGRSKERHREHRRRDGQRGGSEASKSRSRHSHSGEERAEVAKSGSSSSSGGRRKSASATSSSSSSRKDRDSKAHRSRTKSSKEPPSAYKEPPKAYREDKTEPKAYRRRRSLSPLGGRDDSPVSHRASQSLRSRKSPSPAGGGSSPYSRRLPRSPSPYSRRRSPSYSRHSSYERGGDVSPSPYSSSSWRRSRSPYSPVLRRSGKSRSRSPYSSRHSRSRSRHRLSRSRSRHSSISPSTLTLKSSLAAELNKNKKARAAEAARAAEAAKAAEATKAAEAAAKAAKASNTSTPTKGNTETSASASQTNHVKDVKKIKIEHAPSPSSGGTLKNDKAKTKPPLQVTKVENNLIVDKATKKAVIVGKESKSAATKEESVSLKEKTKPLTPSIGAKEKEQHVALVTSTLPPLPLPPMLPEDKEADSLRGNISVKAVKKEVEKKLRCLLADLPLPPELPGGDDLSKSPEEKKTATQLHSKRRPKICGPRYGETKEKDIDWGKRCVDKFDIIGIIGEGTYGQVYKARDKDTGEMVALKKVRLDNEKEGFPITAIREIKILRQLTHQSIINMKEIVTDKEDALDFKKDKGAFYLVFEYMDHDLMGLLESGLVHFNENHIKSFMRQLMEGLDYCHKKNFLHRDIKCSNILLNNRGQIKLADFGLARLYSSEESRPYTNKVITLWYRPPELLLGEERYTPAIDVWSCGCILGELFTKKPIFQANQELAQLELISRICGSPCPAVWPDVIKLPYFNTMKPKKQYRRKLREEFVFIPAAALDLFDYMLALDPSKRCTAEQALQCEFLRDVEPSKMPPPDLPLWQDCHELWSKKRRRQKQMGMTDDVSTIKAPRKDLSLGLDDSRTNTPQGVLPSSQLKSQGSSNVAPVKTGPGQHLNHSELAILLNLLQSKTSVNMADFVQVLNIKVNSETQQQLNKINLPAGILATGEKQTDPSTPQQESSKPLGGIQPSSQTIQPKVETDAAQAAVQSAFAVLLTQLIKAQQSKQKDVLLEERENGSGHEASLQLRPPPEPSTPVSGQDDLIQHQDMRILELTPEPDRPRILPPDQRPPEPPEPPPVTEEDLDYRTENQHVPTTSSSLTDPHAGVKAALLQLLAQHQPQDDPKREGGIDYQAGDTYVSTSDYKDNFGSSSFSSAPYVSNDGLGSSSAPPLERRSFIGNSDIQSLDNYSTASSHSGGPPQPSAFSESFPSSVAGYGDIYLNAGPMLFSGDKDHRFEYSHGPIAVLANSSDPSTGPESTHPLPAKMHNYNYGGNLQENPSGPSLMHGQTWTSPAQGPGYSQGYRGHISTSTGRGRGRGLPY

Sample 1 — read-out: enzyme activity; mode: inhibitor; tested at: 77 µM; baseline: untreated
Target: DNA polymerase theta, ATPase domain (POLQ, Homo sapiens, UniProt O75417)
Chain of UniProt O75417 (whole entry, unmodified, looked up): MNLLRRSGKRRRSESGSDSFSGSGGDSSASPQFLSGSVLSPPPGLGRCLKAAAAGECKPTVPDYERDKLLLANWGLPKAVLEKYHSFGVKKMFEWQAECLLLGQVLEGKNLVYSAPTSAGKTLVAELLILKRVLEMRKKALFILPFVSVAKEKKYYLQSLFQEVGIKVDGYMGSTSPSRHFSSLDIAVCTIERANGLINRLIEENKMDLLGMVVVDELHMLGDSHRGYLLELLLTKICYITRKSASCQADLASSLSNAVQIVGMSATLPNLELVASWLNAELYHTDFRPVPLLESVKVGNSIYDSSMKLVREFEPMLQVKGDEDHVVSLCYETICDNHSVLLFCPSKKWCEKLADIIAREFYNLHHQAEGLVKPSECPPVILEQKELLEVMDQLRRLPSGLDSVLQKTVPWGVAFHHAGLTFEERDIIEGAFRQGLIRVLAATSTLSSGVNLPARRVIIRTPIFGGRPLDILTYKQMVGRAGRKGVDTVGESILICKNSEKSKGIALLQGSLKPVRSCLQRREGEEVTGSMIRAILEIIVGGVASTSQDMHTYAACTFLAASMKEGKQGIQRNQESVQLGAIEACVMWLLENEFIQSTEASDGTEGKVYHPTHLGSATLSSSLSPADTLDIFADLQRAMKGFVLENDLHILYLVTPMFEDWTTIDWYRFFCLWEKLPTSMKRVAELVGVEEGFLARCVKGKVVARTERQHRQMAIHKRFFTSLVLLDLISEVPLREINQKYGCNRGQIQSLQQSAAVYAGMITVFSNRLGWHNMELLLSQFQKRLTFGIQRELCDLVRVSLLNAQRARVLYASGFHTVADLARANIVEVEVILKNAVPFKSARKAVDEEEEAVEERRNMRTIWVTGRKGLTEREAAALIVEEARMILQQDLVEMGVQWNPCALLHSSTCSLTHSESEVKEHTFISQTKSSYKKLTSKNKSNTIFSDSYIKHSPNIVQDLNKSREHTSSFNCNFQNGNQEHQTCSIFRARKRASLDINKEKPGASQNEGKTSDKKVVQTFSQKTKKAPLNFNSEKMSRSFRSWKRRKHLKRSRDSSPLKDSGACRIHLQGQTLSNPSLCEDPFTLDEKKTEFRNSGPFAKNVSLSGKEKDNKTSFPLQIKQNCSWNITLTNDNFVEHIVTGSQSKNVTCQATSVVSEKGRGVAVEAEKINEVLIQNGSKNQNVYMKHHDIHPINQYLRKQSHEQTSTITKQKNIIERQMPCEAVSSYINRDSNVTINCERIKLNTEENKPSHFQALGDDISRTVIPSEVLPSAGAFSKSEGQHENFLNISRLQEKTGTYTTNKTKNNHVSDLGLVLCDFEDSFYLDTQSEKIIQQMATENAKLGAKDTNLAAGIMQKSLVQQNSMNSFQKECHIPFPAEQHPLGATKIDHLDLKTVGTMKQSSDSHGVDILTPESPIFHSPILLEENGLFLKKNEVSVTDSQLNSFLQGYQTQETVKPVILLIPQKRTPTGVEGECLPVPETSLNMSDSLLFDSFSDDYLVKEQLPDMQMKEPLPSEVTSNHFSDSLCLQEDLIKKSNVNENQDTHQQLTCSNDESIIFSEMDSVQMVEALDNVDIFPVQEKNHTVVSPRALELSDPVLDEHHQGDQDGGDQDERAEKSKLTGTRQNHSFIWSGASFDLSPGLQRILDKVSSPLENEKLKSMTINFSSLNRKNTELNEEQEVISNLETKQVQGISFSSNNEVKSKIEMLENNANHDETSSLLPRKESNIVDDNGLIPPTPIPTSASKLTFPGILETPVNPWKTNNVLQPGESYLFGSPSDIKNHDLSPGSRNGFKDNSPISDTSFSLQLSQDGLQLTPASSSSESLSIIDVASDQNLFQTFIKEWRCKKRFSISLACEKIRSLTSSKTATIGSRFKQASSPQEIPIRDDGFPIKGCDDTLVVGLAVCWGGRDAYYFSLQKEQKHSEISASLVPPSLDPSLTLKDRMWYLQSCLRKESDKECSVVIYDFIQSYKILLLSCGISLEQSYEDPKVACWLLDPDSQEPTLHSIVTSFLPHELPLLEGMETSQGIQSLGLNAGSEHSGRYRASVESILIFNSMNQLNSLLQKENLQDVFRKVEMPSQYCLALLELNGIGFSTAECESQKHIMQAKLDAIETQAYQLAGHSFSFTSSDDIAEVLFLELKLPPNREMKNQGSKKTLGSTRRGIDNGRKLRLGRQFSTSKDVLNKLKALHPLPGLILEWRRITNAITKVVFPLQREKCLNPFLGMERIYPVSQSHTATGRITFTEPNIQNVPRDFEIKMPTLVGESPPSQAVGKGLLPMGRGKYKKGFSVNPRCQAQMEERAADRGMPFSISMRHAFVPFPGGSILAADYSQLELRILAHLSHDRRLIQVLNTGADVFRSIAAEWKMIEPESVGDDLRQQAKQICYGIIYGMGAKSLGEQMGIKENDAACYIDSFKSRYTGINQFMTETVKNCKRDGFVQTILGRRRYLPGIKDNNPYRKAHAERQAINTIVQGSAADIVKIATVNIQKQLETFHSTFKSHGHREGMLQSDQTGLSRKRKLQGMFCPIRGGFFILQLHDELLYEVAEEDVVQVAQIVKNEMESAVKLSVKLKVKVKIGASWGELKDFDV
Structure (SMILES)	remaining activity
S=C(NCc1ccc2c(c1)OCO2)N1CCN(c2ncnc3c2oc2ccccc23)CC1	99.5% and 94.9% and 101% and 92.1%
C[N+]1(C)CCC(=C(c2ccccc2)c2ccccc2)CC1	97.7% and 95.2%
N#CC1(c2ccc(NC(=O)c3cccnc3NCc3ccncc3)cc2)CCCC1	103%
Cc1ccnc2c1NC(=O)c1cccnc1N2C1CC1	97.2%
O=C(O[C@H]1CN2CCC1CC2)N1CCc2ccccc2[C@@H]1c1ccccc1	98%
N#C/C(=C\c1ccc(O)c(O)c1)C(=O)c1ccc(O)c(O)c1	81.2%
C=C1C[C@]23C[C@@]1(O)CC[C@H]2[C@@]12C=C[C@H](O)[C@@](C)(C(=O)O1)[C@H]2[C@@H]3C(=O)O	80.2%

Sample 2 — tested at: 1 µM
SMILES: CCC(=O)N[C@H]1CC[C@@H](C(=O)N(C)c2ccc(-c3nc4ccccc4o3)cc2)C1
target	test	remaining binding [%]
TSSK1B (Homo sapiens, UniProt Q9BXA7)	cell-free assay, competition with immobilised ligand	91
MAP3K11 (Homo sapiens, UniProt Q16584)	cell-free assay, competition with immobilised ligand	93
Ribosomal protein S6 kinase alpha-2, C-terminal kinase domain (RPS6KA2, Homo sapiens, UniProt Q15349)	cell-free assay, competition with immobilised ligand	100
PKMYT1 (Homo sapiens, UniProt Q99640)	cell-free assay, competition with immobilised ligand	99
PRKX (Homo sapiens, UniProt P51817)	cell-free assay, competition with immobilised ligand	91
RET (Homo sapiens, UniProt P07949)	cell-free assay, competition with immobilised ligand	92
TRPM6 (Homo sapiens, UniProt Q9BX84)	cell-free assay, competition with immobilised ligand	76
CAMK1D (Homo sapiens, UniProt Q8IU85)	cell-free assay, competition with immobilised ligand	100
RIOK3 (Homo sapiens, UniProt O14730)	cell-free assay, competition with immobilised ligand	92
STK24 (Homo sapiens, UniProt Q9Y6E0)	cell-free assay, competition with immobilised ligand	95
CDC42BPG (Homo sapiens, UniProt Q6DT37)	competition binding	91
ANKK1 (Homo sapiens, UniProt Q8NFD2)	cell-free assay, competition with immobilised ligand	66
FLT3 (Homo sapiens, UniProt P36888, N841I)	cell-free assay, competition with immobilised ligand	100
KIT (Homo sapiens, UniProt P10721)	cell-free assay, competition with immobilised ligand	94
MAPKAPK2 (Homo sapiens, UniProt P49137)	cell-free assay, competition with immobilised ligand	97
Tyrosine-protein kinase ABL1, phosphorylated (ABL1, Homo sapiens, UniProt P00519, M351T)	cell-free assay, competition with immobilised ligand	94
CAMK2A (Homo sapiens, UniProt Q9UQM7)	cell-free assay, competition with immobilised ligand	94
GRK2 (Homo sapiens, UniProt P25098)	cell-free assay, competition with immobilised ligand	66
MAP3K6 (Homo sapiens, UniProt O95382)	cell-free assay, competition with immobilised ligand	76
CDK13 (Homo sapiens, UniProt Q14004)	cell-free assay, competition with immobilised ligand	100

Sample 3 — read-out: enzyme activity; mode: inhibitor; tested at: 1 µM
Structure (SMILES): CO[C@@H]1[C@H](N(C)C(=O)c2ccccc2)C[C@H]2O[C@]1(C)n1c3ccccc3c3c4c(c5c6ccccc6n2c5c31)C(=O)NC4
target	inhibition [%]
SLK (Homo sapiens, UniProt Q9H2G2)	33
EIF2AK1 (Homo sapiens, UniProt Q9BQI3)	0
GSK3B (Homo sapiens, UniProt P49841)	20
SBK1 (Homo sapiens, UniProt Q52WX2)	40
Tyrosine-protein kinase ABL1, phosphorylated (ABL1, Homo sapiens, UniProt P00519, Y253F)	23
TNK1 (Homo sapiens, UniProt Q13470)	88
PRKX (Homo sapiens, UniProt P51817)	66
ACVR2B (Homo sapiens, UniProt Q13705)	0
SGK2 (Homo sapiens, UniProt Q9HBY8)	98

Sample 4 — cell line: A-375; tested at: 100 µM; time: 36 h
SMILES	viability
CCN(CC)CCNC(=O)c1cc(Br)c(N)cc1OC	93.9%
CN1C(C)(C)CCCC1(C)C	106%
CC(C)C[C@H](NC(=O)[C@H](CCc1ccccc1)NC(=O)CN1CCOCC1)C(=O)N[C@@H](Cc1ccccc1)C(=O)N[C@@H](CC(C)C)C(=O)[C@@]1(C)CO1	6.83%
CCCSc1nc(N[C@@H]2C[C@H]2c2ccc(F)c(F)c2)c2nnn([C@@H]3C[C@H](OCCO)[C@@H](O)[C@H]3O)c2n1	-2.03%
C=CCc1ccc(O)c(-c2cc(CC=C)ccc2O)c1	0.387%
CC(C)c1cc2c(cc1S(=O)(=O)O)[C@@]1(C)CCC[C@@](C)(C(=O)O)[C@@H]1CC2	108%
N#CC1(c2ccc(NC(=O)c3cccnc3NCc3ccncc3)cc2)CCCC1	50.2%
O=C(N[C@H](CO)[C@H](O)c1ccc([N+](=O)[O-])cc1)C(Cl)Cl	110%
